{"data": "Results gathered from unrelated publications", "note": "Each numbered part is a random draw from the data of one study; scales do not carry over between parts. “And” joins repeats or separate records; there may be more than shown. Changes are numbered by the printed parent chain."}
{"data": "Study 1", "target": "CREBL2, bZIP domain (human)", "method": "DHFR protein complementation", "sample": "yeast", "setting": "single substitutions, most at no-binding floor", "relative to": "wild-type JUN-FOS pair", "direction": "higher = stronger binding", "parent": "JUN, bZIP domain (human); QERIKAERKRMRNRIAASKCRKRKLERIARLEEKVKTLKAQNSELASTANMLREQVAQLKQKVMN; partner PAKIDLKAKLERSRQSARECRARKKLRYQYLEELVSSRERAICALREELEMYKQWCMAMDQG"}
{"Variant": "E33L", "binding fitness": "-1.5 natural log"}
{"Variant": "L38F", "binding fitness": "-1.5 natural log"}
{"Variant": "N42V", "binding fitness": "-1.45 natural log"}
{"Variant": "Q55V", "binding fitness": "-1.62 natural log"}
{"Variant": "N42D", "binding fitness": "-1.52 natural log"}
{"Variant": "E44Y", "binding fitness": "-1.51 natural log"}
{"Variant": "Q55F", "binding fitness": "-1.65 natural log"}
{"Variant": "T37H", "binding fitness": "-1.34 natural log"}
{"data": "Study 2", "target": "Sal-like protein 4, full length isoform B (SALL4, Homo sapiens, UniProt Q9UJQ4-2, residues 1-616)", "method": "universal PBM", "molecule type": "double-stranded DNA, one strand shown", "sample": "in vitro", "concentration": "not given", "setting": "8-mer, flanks averaged, mean of replicates", "direction": "higher = stronger binding", "Target sequence (chain)": "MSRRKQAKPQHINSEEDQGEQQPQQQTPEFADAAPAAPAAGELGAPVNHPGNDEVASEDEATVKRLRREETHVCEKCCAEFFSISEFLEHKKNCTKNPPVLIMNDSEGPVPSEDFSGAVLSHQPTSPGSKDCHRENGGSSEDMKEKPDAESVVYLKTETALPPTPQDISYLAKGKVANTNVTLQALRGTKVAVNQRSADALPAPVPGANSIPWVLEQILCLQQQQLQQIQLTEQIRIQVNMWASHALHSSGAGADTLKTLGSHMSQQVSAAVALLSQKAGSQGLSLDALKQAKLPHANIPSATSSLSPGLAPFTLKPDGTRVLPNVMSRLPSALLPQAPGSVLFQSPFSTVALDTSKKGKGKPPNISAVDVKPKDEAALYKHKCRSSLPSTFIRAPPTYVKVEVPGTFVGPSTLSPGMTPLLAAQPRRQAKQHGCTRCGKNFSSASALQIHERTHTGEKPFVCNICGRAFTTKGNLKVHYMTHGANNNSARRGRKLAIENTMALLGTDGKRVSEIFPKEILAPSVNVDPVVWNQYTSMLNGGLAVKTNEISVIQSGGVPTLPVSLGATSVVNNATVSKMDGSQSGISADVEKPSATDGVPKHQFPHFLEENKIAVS"}
{"Sequence": "ACGGTGAA", "E-score": 0.0545}
{"Sequence": "GACAGAGA", "E-score": 0.00413}
{"Sequence": "CCCGTAAG", "E-score": -0.0929}
{"Sequence": "TGCGGACA", "E-score": -0.112}
{"Sequence": "GCTGACAC", "E-score": -0.126}
{"Sequence": "AACTTGAC", "E-score": 0.0788}
{"Sequence": "CCGCTCCA", "E-score": -0.199}
{"Sequence": "ACCGACGA", "E-score": -0.163}
{"data": "Other studies, line by line"}
{"Substance": "CC[C@@H](C)c1nc2cc(Nc3ccnc4ccc(S(=O)(=O)C(C)C)cc34)ccc2s1", "tested on": "L929 RIPK3 knockout", "test": "cell viability", "conditions": "without zVAD, 10% FBS", "endpoint": "CC50", "value": "52.6 µM"}
{"Substance": "O=C1CCC(N2Cc3cc(C4CCN(Cc5ccccc5)CC4)ccc3C2=O)C(=O)N1 (stereo not shown)", "tested on": "Jurkat", "conditions": "1000 nM, 24 h, with: CD3/CD28 beads 1:4", "endpoint": "IL-2 level", "value": "172 pg/mL and 190 pg/mL and 194 pg/mL"}
{"Substance": "RBMXL2 (Homo sapiens, UniProt O75526)", "tested on": "RBMX (Homo sapiens, UniProt P38159)", "test": "cross-linking MS", "conditions": "hits only", "endpoint": "interaction screen", "value": "cross-linked"}
{"Substance": "COc1ccc(-c2c(Nc3ccccn3)[nH]c3c(C4=CCCCC4)c(-c4ccccc4)nn3c2=O)cc1", "test": "LC-MS/MS", "system": "human, plasma", "conditions": "oral, 50 mg once daily", "endpoint": "apparent steady-state clearance CL/F", "value": "1510 mL/h and 1430 mL/h and 1550 mL/h"}
{"Substance": "CC(C)(C(=O)O)c1ccc(C(O)CCCN2CCC(C(O)(c3ccccc3)c3ccccc3)CC2)cc1 (stereo not shown)", "tested on": "mouse MPNST tumor cells", "test": "high-content nuclear imaging, refers to: cell number", "conditions": "10 µM, 12 h, mean of 2 replicates", "how to read": "relative to: plate mean, higher = more cells", "endpoint": "nuclei count", "value": "0.64 z-score and 1.16 z-score"}
{"Substance": "CC(=O)OCC[N+](C)(C)C", "tested on": "A-375", "conditions": "100 µM, 60 h", "endpoint": "viability", "value": "107%"}
{"note": "Excerpt of the above (other studies, line by line):"}
{"Substance": "COc1ccc(-c2c(Nc3ccccn3)[nH]c3c(C4=CCCCC4)c(-c4ccccc4)nn3c2=O)cc1", "test": "LC-MS/MS", "system": "human, plasma", "conditions": "oral, 50 mg once daily", "endpoint": "apparent steady-state clearance CL/F", "value": "1510 mL/h and 1430 mL/h and 1550 mL/h"}
{"Substance": "CC(C)(C(=O)O)c1ccc(C(O)CCCN2CCC(C(O)(c3ccccc3)c3ccccc3)CC2)cc1 (stereo not shown)", "tested on": "mouse MPNST tumor cells", "test": "high-content nuclear imaging, refers to: cell number", "conditions": "10 µM, 12 h, mean of 2 replicates", "how to read": "relative to: plate mean, higher = more cells", "endpoint": "nuclei count", "value": "0.64 z-score and 1.16 z-score"}
{"Substance": "CC(=O)OCC[N+](C)(C)C", "tested on": "A-375", "conditions": "100 µM, 60 h", "endpoint": "viability", "value": "107%"}
{"Substance": "O=C1CCC(N2Cc3cc(C4CCN(Cc5ccccc5)CC4)ccc3C2=O)C(=O)N1 (stereo not shown)", "tested on": "Jurkat", "conditions": "1000 nM, 24 h, with: CD3/CD28 beads 1:4", "endpoint": "IL-2 level", "value": "172 pg/mL and 190 pg/mL and 194 pg/mL"}
